Measurements of several laboratories.
A part holds a random share of what one study measured. Changes are numbered by the printed parent chain.

Series 1 — target: CCNA1, cyclin fold, Cln2 fusion (human); technique: yeast growth competition, sequencing; medium: yeast; setting: weak parent motif; relative to: not given; direction: higher = stronger binding
Starting sequence: INSM1 docking peptide (human); PKAIRKLHFEDEV
`R5G` — result for “normalised enrichment score”: -0.482.
Under “normalised enrichment score”, `D11W` is recorded as 0.223.
For `K6W`, “normalised enrichment score” read 0.0383.
For `F9M`, “normalised enrichment score” read 0.155.
`R5D` — result for “normalised enrichment score”: 0.217.
`D11Q`: “normalised enrichment score” 0.568.
`E12V` — result for “normalised enrichment score”: 0.781.
`H8S`: “normalised enrichment score” 0.953.
`F9E`: “normalised enrichment score” -0.19.
`E10R`: “normalised enrichment score” 0.127.
`K2S`: “normalised enrichment score” 0.687.
`F9A` — result for “normalised enrichment score”: -0.39.
`D11H` — result for “normalised enrichment score”: 0.393.

Series 2 — technique: universal PBM; form: double-stranded DNA, one strand shown; medium: in vitro; tested at: 600 nM; direction: higher = stronger binding
Target: Sal-like protein 4, full length isoform A (SALL4, Homo sapiens, UniProt Q9UJQ4, residues 1-1053)
Sequence of UniProt Q9UJQ4 (whole entry, looked up): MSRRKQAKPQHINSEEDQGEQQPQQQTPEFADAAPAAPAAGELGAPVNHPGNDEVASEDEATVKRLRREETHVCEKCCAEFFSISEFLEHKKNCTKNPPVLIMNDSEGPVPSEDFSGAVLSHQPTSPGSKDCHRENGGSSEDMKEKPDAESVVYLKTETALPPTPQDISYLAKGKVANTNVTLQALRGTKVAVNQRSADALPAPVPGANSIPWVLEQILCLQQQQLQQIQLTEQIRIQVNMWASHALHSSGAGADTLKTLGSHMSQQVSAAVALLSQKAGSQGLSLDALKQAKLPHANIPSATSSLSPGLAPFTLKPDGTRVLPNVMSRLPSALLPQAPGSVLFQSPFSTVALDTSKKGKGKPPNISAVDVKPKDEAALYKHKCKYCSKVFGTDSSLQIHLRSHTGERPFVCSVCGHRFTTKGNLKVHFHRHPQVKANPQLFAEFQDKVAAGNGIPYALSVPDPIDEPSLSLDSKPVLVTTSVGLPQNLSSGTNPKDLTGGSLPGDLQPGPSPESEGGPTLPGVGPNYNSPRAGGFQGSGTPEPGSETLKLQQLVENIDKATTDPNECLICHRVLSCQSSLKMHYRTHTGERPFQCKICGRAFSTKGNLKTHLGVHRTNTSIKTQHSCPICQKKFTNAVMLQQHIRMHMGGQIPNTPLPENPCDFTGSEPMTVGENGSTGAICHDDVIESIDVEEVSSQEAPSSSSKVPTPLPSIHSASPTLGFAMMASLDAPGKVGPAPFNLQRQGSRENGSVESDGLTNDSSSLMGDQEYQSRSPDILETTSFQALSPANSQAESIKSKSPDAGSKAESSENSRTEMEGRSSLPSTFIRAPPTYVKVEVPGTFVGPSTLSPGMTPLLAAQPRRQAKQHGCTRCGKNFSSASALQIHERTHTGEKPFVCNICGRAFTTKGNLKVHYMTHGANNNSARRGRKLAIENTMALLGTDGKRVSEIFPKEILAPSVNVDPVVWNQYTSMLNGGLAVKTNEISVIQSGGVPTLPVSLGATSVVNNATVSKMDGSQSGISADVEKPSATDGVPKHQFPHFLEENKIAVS
Setting: 8-mer, flanks averaged, mean of replicates
`CTCCGCCA` has an E-score of -0.24.
`TATAGCCA` has an E-score of 0.185.
`ACTGAAGG` has an E-score of -0.0905.
For `ATGCCAGC`, the E-score was -0.206.
`CGCAAACG` gave an E-score of -0.0595.
`GCCGGGCC` gave an E-score of -0.414.
With `AACGCAAC` the E-score was 0.0897.
With `AAAGAGCT` the E-score was -0.0691.
The E-score of `TTCAGCAA` is reported as 0.161.
`GACGGATC` has an E-score of -0.163.
For `AAAGGAAC`, the E-score was 0.0525.
`CGTCTTGA` has an E-score of 0.031.
With `CTTCATCA` the E-score was 0.133.
For `GTTGGCGA`, the E-score was -0.0978.
For `ATTTGACC`, the E-score was -0.028.
`ACGTGGCC` gave an E-score of -0.251.
The E-score of `CCGGTTCG` is reported as -0.31.
`GTAAACAA` gave an E-score of 0.281.

Series 3 — technique: protein-binding microarray; form: double-stranded DNA, one strand shown; medium: in vitro; tested at: 250 nM; setting: 60-bp whole probe; together with: salmon DNA 0.4 mg/ml; relative to: random background probes; direction: higher = stronger binding; constant ends, left off below: GCCTAGCAC … GTCTTGATTCGCTTGACGCTGCTG
Target: Interferon regulatory factor 7, full length, phosphomimetic (IRF7, Homo sapiens, UniProt Q92985, residues 1-503, S101K/S471D/S472D/S475D/S476D/S477D/S483D/S484D/S487D)
Sequence of UniProt Q92985 (whole entry, unmodified, looked up): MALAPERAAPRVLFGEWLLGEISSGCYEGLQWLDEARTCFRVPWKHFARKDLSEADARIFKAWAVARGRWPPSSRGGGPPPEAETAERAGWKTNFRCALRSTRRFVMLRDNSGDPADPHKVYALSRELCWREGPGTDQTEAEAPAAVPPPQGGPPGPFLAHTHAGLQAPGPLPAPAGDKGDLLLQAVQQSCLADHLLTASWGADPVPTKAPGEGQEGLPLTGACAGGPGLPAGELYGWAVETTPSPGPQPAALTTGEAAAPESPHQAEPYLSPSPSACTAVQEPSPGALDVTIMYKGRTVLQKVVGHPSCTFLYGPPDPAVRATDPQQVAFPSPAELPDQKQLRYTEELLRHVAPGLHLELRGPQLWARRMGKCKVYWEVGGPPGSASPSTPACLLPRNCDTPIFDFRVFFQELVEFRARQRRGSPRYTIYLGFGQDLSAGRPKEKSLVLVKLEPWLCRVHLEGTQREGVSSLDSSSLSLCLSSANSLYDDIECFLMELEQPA
`TTAGGCCTCCTACTGCTTTAGTGCTAG` has a log fluorescence of -0.0913 z-score.
`TTTGGTTTGTACACCGCCTTGTGCTAG` has a log fluorescence of 0.0448 z-score.
The log fluorescence of `TCAGTCCTCACTTCCTTCTGGTGCTAG` is reported as 0.962 z-score.
`GACGAACTGGGGTATAGAGACGTGCTA` gave a log fluorescence of -0.631 z-score.
`TCAGTTTTCATTATTGCACTGTGCTAG` has a log fluorescence of 1.3 z-score.
`GACGATTTCAGTTCGGAGACGTGCTAG` has a log fluorescence of 0.154 z-score.
`TTAGGTTCCCTTTTCCTTAAGTGCTAG` gave a log fluorescence of 4.48 z-score.
With `TCATTTTTCTAAGTAAAACTGTGCTAG` the log fluorescence was 1.34 z-score.
`GACGGACTGCTTATCCTGAAGTGCTAG` gave a log fluorescence of -0.453 z-score.
The log fluorescence of `GAGAATTTCCACTTTGACTTGTGCTAG` is reported as 1.38 z-score.
The log fluorescence of `TTTATTTTTTTTATTTATAAGTGCTAG` is reported as 1.21 z-score.
With `TTAGGTCTCGGTATAGGTTAGTGCTAG` the log fluorescence was 1.8 z-score.
The log fluorescence of `AAAAAAAATGGAAATCTACCCGTGCTA` is reported as -0.36 z-score.
For `GAGTGTTTCTTCTGCTGACAGTGCTAG`, the log fluorescence was 0.297 z-score.
`GACGGACTGGACCATCGGGACGTGCTA` gave a log fluorescence of -0.774 z-score.
For `TAAGGTCTCCTTTTCCTTTAGTGCTAG`, the log fluorescence was 2.17 z-score.
With `GACAATATCAGTATCGAGACGTGCTAG` the log fluorescence was 0.246 z-score.
The log fluorescence of `TTAGGACTGCTTTTCCTTTGGTGCTAG` is reported as 0.911 z-score.

Mixed results
With `PhoQ, residues 284 288 289 292 302 303 NLGVHL` the fold induction was 14 (PhoP, residues 12 14 15 18 19 LWHSL (Escherichia coli, UniProt P23836); Sort-seq, measured: YFP reporter; E. coli; PhoQ-PhoP variant library, together with: 10 µM Mg2+; relative to: high Mg2+ state, higher = stronger signaling).

For quick reference, copied from above (series 3):
`GACGGACTGCTTATCCTGAAGTGCTAG` gave a log fluorescence of -0.453 z-score.
The log fluorescence of `GAGAATTTCCACTTTGACTTGTGCTAG` is reported as 1.38 z-score.
The log fluorescence of `TTTATTTTTTTTATTTATAAGTGCTAG` is reported as 1.21 z-score.
With `TTAGGTCTCGGTATAGGTTAGTGCTAG` the log fluorescence was 1.8 z-score.
